{"data": "Experimental data from different studies", "UniProt O75716, sequence (whole entry, looked up)": "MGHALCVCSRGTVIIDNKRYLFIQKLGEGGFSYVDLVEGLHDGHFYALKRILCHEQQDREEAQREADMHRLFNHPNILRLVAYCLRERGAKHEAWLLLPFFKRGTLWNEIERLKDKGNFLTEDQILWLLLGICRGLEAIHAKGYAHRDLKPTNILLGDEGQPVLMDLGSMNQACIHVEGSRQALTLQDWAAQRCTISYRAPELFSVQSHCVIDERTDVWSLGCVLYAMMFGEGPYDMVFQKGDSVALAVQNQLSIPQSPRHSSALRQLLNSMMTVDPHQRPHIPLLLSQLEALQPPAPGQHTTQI", "UniProt O14965, sequence (whole entry, looked up)": "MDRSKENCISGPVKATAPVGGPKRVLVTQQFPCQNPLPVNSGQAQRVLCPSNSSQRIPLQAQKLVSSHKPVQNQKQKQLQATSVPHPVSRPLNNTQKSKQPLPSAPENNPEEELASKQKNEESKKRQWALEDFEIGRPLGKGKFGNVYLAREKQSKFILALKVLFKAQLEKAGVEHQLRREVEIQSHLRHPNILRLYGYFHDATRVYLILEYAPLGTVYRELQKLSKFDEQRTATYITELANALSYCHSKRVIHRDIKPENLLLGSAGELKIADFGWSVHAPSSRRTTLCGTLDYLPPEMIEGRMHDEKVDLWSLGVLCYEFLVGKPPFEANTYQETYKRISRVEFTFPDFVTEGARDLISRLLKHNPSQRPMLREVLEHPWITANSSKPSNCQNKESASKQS"}
{"SMILES": "CN(C)C(=O)c1cc2cnc(Nc3ccc(-c4ccc5c(=O)cc(N6CCOCC6)oc5c4)cc3)nc2n1C1CCCC1", "test system": "BALB/c mouse, plasma", "setting": "oral, 20 mg/kg", "endpoint": "AUC(0-t)", "value": "2880 ng·h/mL"}
{"SMILES": "CCN1CCN(Cc2ccc(NC(=O)c3ccc(C)c(NC(=O)c4cncc(-c5cccs5)c4)c3)cc2C(F)(F)F)CC1", "test system": "mouse, plasma", "setting": "intraperitoneal, 30 mg/kg, single dose", "endpoint": "AUC(0-t)", "value": "2740 ng·h/mL"}
{"SMILES": "Cc1cc2sc(N)nc2c2cccnc12", "test system": "female BALB/c mouse, plasma", "setting": "intraperitoneal, 30 mg/kg, single dose", "endpoint": "AUC", "value": "45500 ng·h/mL"}
{"SMILES": "CC/C(=C(\\c1ccc(O)cc1)c1ccc(OCCNC)cc1)c1ccccc1", "test system": "female C57BL/6 mouse, plasma", "setting": "oral, 1 mg/kg, single dose", "endpoint": "AUC", "value": "31.8 ng·h/mL"}
{"SMILES": "CC[C@H](C)[C@@H]1NC(=O)[C@@](C)(NC(=O)[C@H](CCCNC(=N)N)NC(=O)[C@H](CC(C)C)NC(=O)[C@@H](NC(=O)[C@H](CCC(N)=O)NC(=O)[C@H](CC(C)C)NC(C)=O)[C@@H](C)O)CCCC=CCCC[C@@](C)(C(=O)N[C@@H](CC(C)C)C(=O)N[C@@H](Cc2ccc3ccccc3c2)C(N)=O)NC(=O)[C@H](CCCNC(=N)N)NC(=O)[C@H](CCC(N)=O)NC1=O", "test system": "male BALB/c mouse, plasma", "setting": "intravenous, 10 mg/kg", "endpoint": "AUC", "value": "143 µM·h"}
{"SMILES": "Nc1ncn([C@H]2C[C@H](O)[C@@H](CO)O2)c(=O)n1", "test system": "female C57BL/6 mouse, plasma", "setting": "intravenous, 0.4 mg/kg", "endpoint": "AUC(0-inf)", "value": "185 ng·h/mL"}
{"SMILES": "CNc1ncc2c(/C=C/C(=O)N3CCC(OC)CC3)nn(Cc3cccc(C(F)(F)F)c3)c2n1", "target or system": "Serine/threonine-protein kinase 16 (STK16, Homo sapiens, UniProt O75716)", "assay": "enzyme activity, inhibitor, radiometric", "setting": "1 µM", "endpoint": "remaining activity", "value": "85%"}
{"SMILES": "COc1cc(-c2cncc3c2CN(C)Cc2cc(N4CCNCC4)ccc2-3)cc(OC)c1OC", "target or system": "Aurora kinase A (AURKA, Homo sapiens, UniProt O14965)", "assay": "enzyme activity, inhibitor", "setting": "1 µM", "endpoint": "remaining activity", "value": "104%"}
{"SMILES": "Cl.N=C(CC(O)c1cc2c(F)cc(F)cc2c2cc(C(F)(F)F)ccc12)Nc1ccc(Br)cc1 (stereo not shown)", "test system": "mouse, blood", "setting": "oral, 50 mg/kg, infected", "endpoint": "AUC(0-t)", "value": "93.9 µM·h"}
{"SMILES": "COc1cccc2c1C(=O)c1c(O)c3c(c(O)c1C2=O)C[C@@](O)(C(=O)CO)C[C@@H]3O[C@H]1C[C@H](N)[C@H](O)[C@H](C)O1", "test system": "mouse, plasma", "setting": "intravenous, 13.3 mg/kg", "endpoint": "AUC", "value": "4.13 µM·h"}
{"note": "Some of these lines once more:"}
{"SMILES": "CC/C(=C(\\c1ccc(O)cc1)c1ccc(OCCNC)cc1)c1ccccc1", "test system": "female C57BL/6 mouse, plasma", "setting": "oral, 1 mg/kg, single dose", "endpoint": "AUC", "value": "31.8 ng·h/mL"}
{"SMILES": "Cc1cc2sc(N)nc2c2cccnc12", "test system": "female BALB/c mouse, plasma", "setting": "intraperitoneal, 30 mg/kg, single dose", "endpoint": "AUC", "value": "45500 ng·h/mL"}
